Assay results pooled from the literature.
Protocols differ between the studies behind these lines. ± gives the spread as reported.
Cell line: HCT-116

With `[BH3-][P+]1(c2ccccc2)CCCCC1` the IC50 was 49.1 ± 0.12 µM (cell viability, MTT; 72 h).
For `O=C(NCc1cc(F)cc(F)c1)[C@@]1(O)CCN(c2ccc3[nH]ccc3c2)C1=O`, the IC50 was > 30 µM (cell growth or viability).
`CCNC(=S)NN=Cc1c2ccccc2cc2ccccc12.Cc1ccc(C(C)C)cc1.[Cl-].[Cl-].[Ru+2]` has an IC50 of 290 ± 10 µM (cytotoxicity, MTS; 24 h).
For `O=C1Nc2ccccc2C12NC(c1ccc(Cl)c(Cl)c1)C1(C(=O)Nc3ccccc31)N2Cc1ccc(Cl)c(Cl)c1` (stereo not drawn), the IC50 was 48.7 µM (cell growth or viability, MTT; 48 h).
The IC50 of `CC(=O)OC[C@H]1O[C@@H](Oc2ccc(C#[C][Pt+])cc2)[C@H](OC(C)=O)[C@@H](OC(C)=O)[C@@H]1OC(C)=O.O=S(=O)([O-])C(F)(F)F.c1ccc(-c2cccc(-c3ccccn3)n2)nc1` is reported as 90.7 µM (cell growth or viability; 48 h).
`O=C1CS/C(=N\N=C\c2cccc3cc4ccccc4nc23)N1c1ccccc1` has an IC50 of 39.2 µM (cell growth or viability, MTT; 48 h).
With `COc1ccc(CN2C3(NC(c4ccc(OC)cc4)C24C(=O)Nc2ccccc24)C(=O)Nc2ccccc23)cc1` (stereo not drawn) the IC50 was 63.1 µM (cell growth or viability, MTT; 48 h).
With `CCOC(=O)/C=C1\S/C(=N\N=C\c2cccc3cc4ccccc4nc23)N(c2ccc(OC)cc2)C1=O` the IC50 was 37.2 µM (cell growth or viability, MTT; 48 h).
The IC50 of `O=C1/C(=N\c2ccc(Cl)cc2)c2ccccc2N1Cc1ccccc1` is reported as 2.16 µM (cell growth or viability, MTT; 48 h).
With `Cc1nc(N(C)c2ccc3c(c2)/C(=C/c2ccccc2C)C(=O)N3C)c2ccccc2n1` the IC50 was 0.27 µM (cell growth or viability, MTT).
`[BH3-][P+]1(c2ccccc2)CCC(=O)CC1` has an IC50 of > 100 µM (cell growth or viability, MTT; 72 h).
`CCC(=[NH+][Pt-2]1([Cl])([O]C(C)=O)([O]C(C)=O)[NH]CCC[NH]1)N(C)CCNc1c2ccccc2[nH+]c2ccccc12.O=[N+]([O-])O.O=[N+]([O-])O` has an IC50 of 7.85 µM (cell growth or viability, MTS; 72 h).
With `O=C1CS/C(=N\N=C\c2cccc3cc4ccccc4nc23)N1c1ccc(F)cc1` the IC50 was 30.4 µM (cell growth or viability, MTT; 48 h).
`CCC(=[NH+][Pt-2]1([Cl])([O]C(=O)CC(C)C)([O]C(=O)CC(C)C)[NH]CCC[NH]1)N(C)CCNc1c2ccccc2[nH+]c2ccccc12.O=[N+]([O-])O.O=[N+]([O-])O` gave an IC50 of 4.01 µM (cell growth or viability, MTS; 72 h).
`O=C1C(Nc2ccc(Cl)cc2)c2ccccc2N1Cc1ccccc1` (stereo not drawn) has an IC50 of 26.6 µM (cell growth or viability, MTT; 48 h).
With `CCOC(=O)c1cc(C)[nH]n1` the IC50 was 110 µM (cell growth or viability, MTT; 24 h).
The IC50 of `Cc1ccc([N+](=O)[O-])cc1S(=O)(=O)N(C)/N=C/c1cnc2ccc(Br)cn12` is reported as 0.001 µM (cell viability, MTS).
With `COc1cc(-n2cc3cc(F)cc(C(N)=O)c3n2)cc(Cl)c1C1CC(O)(CCO)CC2CCCC21` (stereo not drawn) the IC50 was 0.14 µM (cell growth or viability, MTT; 72 h).
The IC50 of `NC(=O)c1ccc(-c2ccccc2Cl)c2c3c([nH]c12)CC[C@@H](N)C3` is reported as 0.00242 µM (cell growth or viability).
`COc1cccc(N2C(=O)CS/C2=N\N=C\c2cccc3cc4ccccc4nc23)c1` gave an IC50 of 33.3 µM (cell growth or viability, MTT; 48 h).
With `CN1CCC(N[C@H]2CCc3[nH]c4c(C(N)=O)ccc(-c5ccccc5Cl)c4c3C2)CC1` the IC50 was 0.761 µM (cell growth or viability).
`Cc1nc(N(C)c2ccc3c(c2)/C(=C/c2cn(C)c4ccccc24)C(=O)N3C)c2ccccc2n1` has an IC50 of 4.88 µM (cell growth or viability, MTT).
The IC50 of `[BH3-][P@+]1(c2ccccc2)CC[C@H](O)CC1` is reported as > 100 µM (cell growth or viability, MTT; 72 h).
`O=C(/C=C/Sc1ccc(C(F)(F)F)cn1)c1ccccc1` has an IC50 of 4.1 µM (cell growth or viability, ATP luminescence; 48 h).
`CCOC(=O)/C=C1\S/C(=N\N=C\c2cccc3cc4ccccc4nc23)N(c2ccc(F)cc2)C1=O` has an IC50 of > 50 µM (cell growth or viability, MTT; 48 h).
`Cc1nc(Nc2ccc3c(c2)/C(=C/c2ccccc2Cl)C(=O)N3C)c2ccccc2n1` gave an IC50 of 8.82 µM (cell growth or viability, MTT).
The IC50 of `O=C1CS/C(=N\N=C\c2cccc3cc4ccccc4nc23)N1c1ccc([N+](=O)[O-])cc1` is reported as > 50 µM (cell growth or viability, MTT; 48 h).
`COc1ccccc1/C=C1\C(=O)Nc2ccc(Nc3nc(C)nc4ccccc34)cc21` has an IC50 of 2.77 µM (cell growth or viability, MTT).
The IC50 of `O=C1Nc2ccccc2C12NC(c1ccc(F)cc1)C1(C(=O)Nc3ccccc31)N2Cc1ccc(F)cc1` (stereo not drawn) is reported as 28.8 µM (cell growth or viability, MTT; 48 h).
With `CCCN1C(=O)/C(=C/C(=O)OCC)S/C1=N\N=C\c1cccc2cc3ccccc3nc12` the IC50 was 43.1 µM (cell growth or viability, MTT; 48 h).
`O=C1/C(=N\c2ccc(Cl)cc2Br)c2ccccc2N1Cc1cccc(Cl)c1` (mixture of isomers) has an IC50 of 1.18 µM (cell growth or viability, MTT; 48 h).
The IC50 of `[BH3-][P+]1(C2CCCCC2)CCCCC1` is reported as 52.8 µM (cell growth or viability, MTT; 72 h).
The IC50 of `COC(=O)c1cc(NC2=NC(=O)C(=Cc3ccc(N(C)C)cc3)S2)ccc1OC(C)=O` is reported as 0.44 µM (cell growth or viability, SRB).
With `CCOC(=O)/C=C1\S/C(=N\N=C\c2cccc3cc4ccccc4nc23)N(CC(C)C)C1=O` the IC50 was 46.6 µM (cell growth or viability, MTT; 48 h).
`C/C(=N\Nc1ncnc2sc3c(c12)CCCC3)c1cc(O)ccc1O` has an IC50 of 1.28 µM (cell growth or viability, CCK-8; 48 h).
For `O=[P@]1(c2ccccc2)CC[C@@H](O)CC1`, the IC50 was > 100 µM (cell growth or viability, MTT; 72 h).
With `O=C(CCc1ccco1)N1C(=O)C2(NC(c3ccc(F)cc3)C3(C(=O)Nc4ccccc43)N2Cc2ccc(F)cc2)c2ccccc21` (stereo not drawn) the IC50 was 66.3 µM (cell growth or viability, MTT; 48 h).
With `CC(C)c1ccc(N(C)c2ccc3c(c2)OCC[C@H]3CNc2cnccc2C(=O)O)cc1` the IC50 was 0.0204 µM (cell growth or viability, ATP luminescence; 7 days).
For `Cc1nc(Nc2ccc3c(c2)/C(=C/c2ccccc2)C(=O)N3)c2ccccc2n1`, the IC50 was 24.2 µM (cell growth or viability, MTT).
`CCOC(=O)c1cc(C)n(CO)n1` has an IC50 of > 800 µM (cell growth, MTT; 24 h).
The IC50 of `CCC(=[NH+][Pt-2]1([OH])([OH])([Cl])[NH]CCC[NH]1)N(C)CCNc1c2ccccc2[nH+]c2ccccc12.O=[N+]([O-])O.O=[N+]([O-])O` is reported as 6.44 µM (cell growth or viability, MTS; 72 h).
The IC50 of `O=C1/C(=N\c2ccc(Cl)cc2Br)c2ccccc2N1C(=O)c1ccccc1Br` is reported as 1.3 µM (cell growth or viability, MTT; 48 h).

Repeated from above:
With `O=C1CS/C(=N\N=C\c2cccc3cc4ccccc4nc23)N1c1ccc(F)cc1` the IC50 was 30.4 µM (cell growth or viability, MTT; 48 h).
For `O=[P@]1(c2ccccc2)CC[C@@H](O)CC1`, the IC50 was > 100 µM (cell growth or viability, MTT; 72 h).
With `CCCN1C(=O)/C(=C/C(=O)OCC)S/C1=N\N=C\c1cccc2cc3ccccc3nc12` the IC50 was 43.1 µM (cell growth or viability, MTT; 48 h).
`O=C(/C=C/Sc1ccc(C(F)(F)F)cn1)c1ccccc1` has an IC50 of 4.1 µM (cell growth or viability, ATP luminescence; 48 h).
The IC50 of `CC(=O)OC[C@H]1O[C@@H](Oc2ccc(C#[C][Pt+])cc2)[C@H](OC(C)=O)[C@@H](OC(C)=O)[C@@H]1OC(C)=O.O=S(=O)([O-])C(F)(F)F.c1ccc(-c2cccc(-c3ccccn3)n2)nc1` is reported as 90.7 µM (cell growth or viability; 48 h).
The IC50 of `COC(=O)c1cc(NC2=NC(=O)C(=Cc3ccc(N(C)C)cc3)S2)ccc1OC(C)=O` is reported as 0.44 µM (cell growth or viability, SRB).
